Assay results collected from several papers.
Each numbered part is a random draw from the data of one study; scales do not carry over between parts.

Sample 1
Target: UBE2D1 UBC core domain (UniProt P51668)
Technique: yeast two-hybrid
Medium: yeast
Notes: mostly zero background
Baseline: not given
Reading: higher = stronger interaction
Endpoint: lacZ reporter activity
B1: TRIM52 RING domain (UniProt Q96A61); chain PMQTLQEEAVCAICLDYFKDPVSISCGHNFCRGCVTQLWSKEDEEDQNEEEDEWEEEEDEEAV
B2: PHF7 RING domain (UniProt Q9BWX1); chain IQHGHVGEESCILCCEDLSQQSVENIQSPCCSQAIYHRKCIQKYAHTSAKHFFKCPQCNNRKEFPQEML
B3: RNF149 RING domain (UniProt Q8NC42); chain EKGIDVDAENCAVCIENFKVKDIIRILPCKHIFHRICIDPWLLDHRTCPMCKLDVIKALGYW
B4: RNF4 RING domain (UniProt P78317); chain TGLRPSGTVSCPICMDGYSEIVQNGRLIVSTECGHVFCSQCLRDSLKNANTCPTCRKKINHKRYHP
B5: RNF43 RING domain (UniProt Q68DV7); chain SGSSCSSAPVCAICLEEFSEGQELRVISCLHEFHRNCVDPWLHQHRTCPLCMFNITEGDSFS
B6: NSMCE1 RING domain (UniProt Q8WV22); chain RETYPDAVKICNICHSLLIQGQSCETCGIRMHLPCVAKYFQSNAEPRCPHCNDYWPHEIPKV
Target sequence (chain): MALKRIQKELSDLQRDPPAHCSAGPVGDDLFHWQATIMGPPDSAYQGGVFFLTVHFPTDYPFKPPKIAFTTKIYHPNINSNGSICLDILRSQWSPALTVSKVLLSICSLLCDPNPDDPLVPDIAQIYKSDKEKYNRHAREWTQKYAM
B1 (TRIM52 RING domain): 0
SYEDKSNDFVCPICFDMIEEAYMTKCGHSFCYKCIHQSLEDNNRCPKCNYVVDNIDHLY (COP1 RING domain (UniProt Q8NHY2)): 0
B2 (PHF7 RING domain): 0
B3 (RNF149 RING domain): 0
MANWVFCNRCFQPPHRTSCFSLTNCGHVYCDACLGKGKKNECLICKAPCRTVLLSK (RNF212 RING domain (UniProt Q495C1)): 0
B4 (RNF4 RING domain): 3450
B5 (RNF43 RING domain): 7080
FLKKLEQSFMCVCCQELVYQPVTTECFHNVCKDCLQRSFKAQVFSCPACRHDLGQNYIMI (UHRF2 RING domain (UniProt Q96PU4)): 7990
B6 (NSMCE1 RING domain): 0

Sample 2
Target: Interferon regulatory factor 7, full length, phosphomimetic (IRF7, Homo sapiens, UniProt Q92985, residues 1-503, S101K/S471D/S472D/S475D/S476D/S477D/S483D/S484D/S487D)
Technique: protein-binding microarray
Form: double-stranded DNA, one strand shown
Medium: in vitro
Tested at: 250 nM
Notes: 60-bp whole probe
Together with: salmon DNA 0.4 mg/ml
Baseline: random background probes
Reading: higher = stronger binding
Endpoint: log fluorescence
All sequences stand within: GCCTAGCAC … GTCTTGATTCGCTTGACGCTGCTG
Construct (chain): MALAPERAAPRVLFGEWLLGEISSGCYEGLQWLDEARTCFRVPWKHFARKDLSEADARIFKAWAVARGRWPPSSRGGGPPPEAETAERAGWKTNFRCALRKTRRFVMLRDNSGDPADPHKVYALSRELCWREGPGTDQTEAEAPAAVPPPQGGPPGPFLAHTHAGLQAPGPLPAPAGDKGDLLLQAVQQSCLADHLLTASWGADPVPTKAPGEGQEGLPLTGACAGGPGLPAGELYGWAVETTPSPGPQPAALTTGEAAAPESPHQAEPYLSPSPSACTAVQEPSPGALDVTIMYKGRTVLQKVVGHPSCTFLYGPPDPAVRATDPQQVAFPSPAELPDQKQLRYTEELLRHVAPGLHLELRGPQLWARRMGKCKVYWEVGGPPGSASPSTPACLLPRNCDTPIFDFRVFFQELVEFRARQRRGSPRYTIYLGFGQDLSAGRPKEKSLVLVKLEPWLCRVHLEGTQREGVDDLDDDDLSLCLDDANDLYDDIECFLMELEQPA
TTAAATCTCAGACTGGATTAGTGCTAG: 0.0248 z-score
TTAGGTTTCCTTCTCCTGTAGTGCTAG: 2.46 z-score
TTAGAACTGAGTTTCGATGAGTGCTAG: 1.59 z-score
TTAGGTATCGACACTGGTTTAGTGCTA: 0.04 z-score
AACGATCTCAGACTGGAGACGTGCTAG: -0.191 z-score
GACGGACTGGACAATCGGGACGTGCTA: -0.749 z-score
TTAGGCCTCGGACTGGGTTAGTGCTAG: 0.187 z-score
GACGGACTGCTACTGCTGTCGTGCTAG: -0.639 z-score
TCTCTCCCTTTATCTCTTTTGTGCTAG: 1.09 z-score
GACGATTCCAGTTTCGAAACGTGCTAG: 6.44 z-score
TTAGAACTGGGGTTTCTATTAGTGCTA: 0.914 z-score

Sample 3
Target: Phosphate system positive regulatory protein PHO4, full length, GST-tagged (PHO4, Saccharomyces cerevisiae, UniProt P07270, residues 1-312)
Technique: competition protein-binding microarray
Form: double-stranded DNA, one strand shown
Medium: in vitro
Tested at: 2 µM
Notes: whole 60-bp probe, lowest competitor level
Together with: Cbf1 competitor, 0.05 µM
Reading: higher = stronger binding
Endpoint: fluorescence intensity
All sequences stand within: … GTCTTGATTCGCTTGACGCTGCTG
Construct (chain): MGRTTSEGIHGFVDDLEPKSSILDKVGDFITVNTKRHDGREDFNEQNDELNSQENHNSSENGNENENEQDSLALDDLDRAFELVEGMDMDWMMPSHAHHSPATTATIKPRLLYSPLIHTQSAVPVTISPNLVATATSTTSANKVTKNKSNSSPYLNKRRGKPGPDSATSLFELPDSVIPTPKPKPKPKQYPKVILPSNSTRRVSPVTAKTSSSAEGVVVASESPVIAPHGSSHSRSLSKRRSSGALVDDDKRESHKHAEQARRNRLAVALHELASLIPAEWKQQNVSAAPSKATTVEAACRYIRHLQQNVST
CGGGGTTAAGTTTGAGCCGTGGGTGGCTTGCAGCAG: 5790 a.u.
CTAACGAAGGTTTGGCAAGTGGGTGACAAGCCAAGT: 3810 a.u.
GCTTGCTGTCAGCGTCACAGTTAAAGTTCATATACA: 2940 a.u.
GTCTTGTCTCATTGCCGTGTGGGTGTCCCCACTTCA: 5750 a.u.
AAAAAAGGGGGCAGCAACGTGCTTTACATACAAACC: 14300 a.u.
CTTCTGTAAATTTGAGTTGTGGGTGGACGCGCCCCG: 4270 a.u.
CGTCACTTGCCAGGTCACATGGGCAAATGGCCAGCG: 10100 a.u.
AAAGCGGTAATTTGTCGTGTGGGTGCAGATATCTAT: 5080 a.u.
AAGTTACGCGTATATCATGTGACAGTAATTACTATA: 7190 a.u.
ACCTTCTTTGGCGTTGTTGTGACGGAGACTTCCTGT: 3770 a.u.
CTTTTAGTAAACCGTCACGTGCAAAAGATTCTTTAG: 16600 a.u.

Sample 4
Target: RING finger protein unkempt homolog, zinc fingers 1-6, SBP tag (UNK, Homo sapiens, UniProt Q9C0B0, residues 30-357)
Sequence of UniProt Q9C0B0 (30-357, looked up): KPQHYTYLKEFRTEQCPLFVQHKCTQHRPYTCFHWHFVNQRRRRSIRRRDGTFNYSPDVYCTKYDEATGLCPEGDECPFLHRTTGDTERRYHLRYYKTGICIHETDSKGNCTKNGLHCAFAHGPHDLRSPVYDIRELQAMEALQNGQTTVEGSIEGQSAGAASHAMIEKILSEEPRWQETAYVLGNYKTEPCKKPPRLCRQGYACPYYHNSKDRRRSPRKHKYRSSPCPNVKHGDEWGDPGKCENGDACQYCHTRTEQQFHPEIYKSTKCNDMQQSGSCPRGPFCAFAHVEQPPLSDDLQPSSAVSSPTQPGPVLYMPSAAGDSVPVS
Technique: RNA Bind-n-Seq
Form: RNA
Medium: in vitro
Tested at: 100 nM
Notes: RNA with constant flanks, vertebrate orthologous sites, ends assumed
Baseline: input RNA pool
Reading: higher = stronger binding
Endpoint: bound/input enrichment
All sequences stand within: GGGAGUUCUACAGUCCGACGAUC … CAACAGAGGAUUGAGCAUCA
UUUGUGUGUACAGGGUAUUCUCUGUACUAGUUUGUUGUGGUUAUAAAACAUUUAGCAAAACAGCCUACAUUUGUAUUUAUUUUCUGUUCCAUACUUCUGUGCCUCAUGUGUUUUCUUUUA: 0.739 ratio
UCUUUUUUUUUGCACAUGACAGUGUUUGUAUUGAGGACCUUCCAAGGAAGAGGGGUGCUGUAGCAGUGGUGCCUGGGUGCCUGGCCUCCAGUGUCCCACCUCCUUCACCACCCCACUUGG: 0.279 ratio
GUGGGGAUGAGGGUGGGAUGGGAAAGGGAUGUAUGGAUGUUACUGGCAUUUUUAAGUGUUUUAGAGUUUUUUGGGGUUUGGGGUGGUUUUUUUUUCCUUGUUUUCCUUUUUUCCUUUUAA: 2.36 ratio
CCCCAGCACUUUGAUAAAGACUGUGGAUUGGUUGCUGGUGUUUUCCUUGUUCUUUUUAAUUAGUUUCAUUAUGUAUGCUACCAUCCGCACUGAGAGUAUUCGGUGGCUGAUUCCAGGACA: 0.648 ratio
ACACGUAUAUUGUGGCGUAUAGUCAACAUGGAAGUAGACCGGCUCUGCUGAUUUGAAAUUUAGAUUUUUUUAAUUAUGUACUGGGGACAGGUUUUUGUCGCUUUACAUUGCUUCCUAGUU: 4.08 ratio
UUGUUUUGUACAGGGCAUUCUCUGUACUAGUUUGUUGUGGUUAUAAAACAAUUAGCAAAACAGCUUACAUUUGUAUUUAUUUUCUAUUCCAUACUCUCCCUGCCCCAUGUUUUCUCUUUC: 0.571 ratio

Some of these lines once more (sample 4):
UUUGUGUGUACAGGGUAUUCUCUGUACUAGUUUGUUGUGGUUAUAAAACAUUUAGCAAAACAGCCUACAUUUGUAUUUAUUUUCUGUUCCAUACUUCUGUGCCUCAUGUGUUUUCUUUUA: 0.739 ratio
UCUUUUUUUUUGCACAUGACAGUGUUUGUAUUGAGGACCUUCCAAGGAAGAGGGGUGCUGUAGCAGUGGUGCCUGGGUGCCUGGCCUCCAGUGUCCCACCUCCUUCACCACCCCACUUGG: 0.279 ratio
GUGGGGAUGAGGGUGGGAUGGGAAAGGGAUGUAUGGAUGUUACUGGCAUUUUUAAGUGUUUUAGAGUUUUUUGGGGUUUGGGGUGGUUUUUUUUUCCUUGUUUUCCUUUUUUCCUUUUAA: 2.36 ratio
CCCCAGCACUUUGAUAAAGACUGUGGAUUGGUUGCUGGUGUUUUCCUUGUUCUUUUUAAUUAGUUUCAUUAUGUAUGCUACCAUCCGCACUGAGAGUAUUCGGUGGCUGAUUCCAGGACA: 0.648 ratio
ACACGUAUAUUGUGGCGUAUAGUCAACAUGGAAGUAGACCGGCUCUGCUGAUUUGAAAUUUAGAUUUUUUUAAUUAUGUACUGGGGACAGGUUUUUGUCGCUUUACAUUGCUUCCUAGUU: 4.08 ratio
UUGUUUUGUACAGGGCAUUCUCUGUACUAGUUUGUUGUGGUUAUAAAACAAUUAGCAAAACAGCUUACAUUUGUAUUUAUUUUCUAUUCCAUACUCUCCCUGCCCCAUGUUUUCUCUUUC: 0.571 ratio
